Experimental data from different studies.
Parts stem from different laboratories: compare values within a part only.

Series 1
Target: RING finger protein unkempt homolog, zinc fingers 1-6, GST-SBP tag (UNK, Homo sapiens, UniProt Q9C0B0, residues 30-357)
Method: RNA Bind-n-Seq
Form: RNA
Medium: in vitro
Tested at: not given
Notes: RNA with constant flanks, human-mouse chimeric sites, ends assumed
Relative to: input RNA pool
Reading: higher = stronger binding
Endpoint: bound/input enrichment
Shared flanks, not repeated: GGGAGUUCUACAGUCCGACGAUC … CAACAGAGGAUUGAGCAUCA
Target sequence (chain): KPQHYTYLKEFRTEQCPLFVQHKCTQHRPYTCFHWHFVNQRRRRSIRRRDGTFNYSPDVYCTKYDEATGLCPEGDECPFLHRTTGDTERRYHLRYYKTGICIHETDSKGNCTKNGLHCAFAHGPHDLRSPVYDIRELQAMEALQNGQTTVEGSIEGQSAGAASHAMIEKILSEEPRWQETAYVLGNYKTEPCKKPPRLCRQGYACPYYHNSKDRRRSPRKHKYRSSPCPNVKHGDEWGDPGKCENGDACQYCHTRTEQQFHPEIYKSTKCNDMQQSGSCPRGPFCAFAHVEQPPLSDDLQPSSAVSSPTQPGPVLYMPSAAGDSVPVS
GUUGCCAGGUUCCGGUGCCGUUGGGCUAGCAAGCUCCCUGAGCUACGUGUCUCUACGCUCUCAAUCCGCCAUCCAACAAACAUGGAUCAGGUAAUGCAGUUUGUGGAGCCCAGCCGGCAG: 0.0615 ratio
GCACUUGGGAAUGUAAUCAGCGCCUUGGGGGACAAGAGCAAGAGAGCCACCCAUGUCCCUUACAGAGAUUCCAAGCUGACAAGACUCUUGCAGGAUUCCCUUGGGGGUAACAGCCAAACC: 0.135 ratio
GCUCUUGGGAAUGUAAUCAGCGCCUUGGGGGACAAGAGCAAGAGAGCCACCCAUGUCCCUUACAGAGAUUCCAAGCUGACAAGACUCUUGCAGGAUUCCCUUGGGGGUAACAGCCAAACC: 0.12 ratio
AAAGUGAUGACUAUGUUUGUCCAACGACAGGUAUUUUCGGAGAGCAAAGAUGAGAUUGCGUUAGUCCUCUAUGGCACAGAUGGCACUGACAAUCCCCUUUCUGGUGGGGACCAGUAUCAG: 0.353 ratio
AAAGAGUGGAUAGAAUGUGCACACGGGAUCGGUGGGACCCGGGCGAAAAAGGAGUGCAAGAUAGAGUUCGAUGACUUCGUAGAGUGUUUGCUUCGGUACAAAACGAUGAGGCGAAUGCAU: 0.359 ratio
AACUUCGUGCAUCGGUUUCCCUUUGUAGCUGUUUCAAUUGGCUUCCUUGUGAAUAAAAAGAUAGAAUUUGGAAUUGUGUACAGUUGUGUGGAAGAUAAGAUGUACACCGGCAGGAAAGGG: 3.75 ratio

Series 2
Target: Interferon regulatory factor 5, full length, phosphomimetic (IRF5, Homo sapiens, UniProt Q13568-2, residues 1-514, S451D/S453D/S456D/S462D)
Method: protein-binding microarray
Form: double-stranded DNA, one strand shown
Medium: in vitro
Tested at: 940 nM top
Notes: 60-bp whole probe
With: salmon DNA 0.4 mg/ml
Relative to: random background probes
Reading: higher = stronger binding
Endpoint: fitted relative affinity
Shared flanks, not repeated: GCCTAGCAC … GTCTTGATTCGCTTGACGCTGCTG
TCACTTCTCCATTTTTCACTGTGCTAG: 1.77 z-score
CTGTGTTTCCTTGTACGTCGGTGCTAG: 0.639 z-score
TCAAATTTTGTCATCTAACTGTGCTAG: -0.167 z-score
CTTAGAATAATTTTTTAGCTTGTGCTA: -0.134 z-score
TTAGGTTTCCTCATCCTTTAGTGCTAG: 1.41 z-score
GTGGCCTTTGTTTCCAGGCAGTGCTAG: 0.283 z-score
AACGGTATCGACTTTCGGGACGTGCTA: 4.71 z-score

Series 3
Target: Centromere-binding protein 1, full length, His-tagged (CBF1, Saccharomyces cerevisiae, UniProt P17106, residues 1-351)
Sequence of UniProt P17106 (whole entry, looked up): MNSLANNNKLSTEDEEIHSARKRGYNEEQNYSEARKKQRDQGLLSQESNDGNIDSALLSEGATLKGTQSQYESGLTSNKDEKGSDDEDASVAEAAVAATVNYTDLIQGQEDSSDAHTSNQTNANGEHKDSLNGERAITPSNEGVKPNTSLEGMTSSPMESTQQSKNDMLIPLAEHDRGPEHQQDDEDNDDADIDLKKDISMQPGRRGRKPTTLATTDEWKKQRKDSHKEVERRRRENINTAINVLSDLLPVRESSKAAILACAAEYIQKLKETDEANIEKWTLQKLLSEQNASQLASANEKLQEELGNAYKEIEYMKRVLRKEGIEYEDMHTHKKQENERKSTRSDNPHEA
Method: competition protein-binding microarray
Form: double-stranded DNA, one strand shown
Medium: in vitro
Tested at: 2 µM
Notes: whole 60-bp probe, lowest competitor level
With: Pho4 competitor, 0.05 µM
Reading: higher = stronger binding
Endpoint: fluorescence intensity
Shared flanks, not repeated: … GTCTTGATTCGCTTGACGCTGCTG
CGTCCTAGTGATTGTTGCGTGGGTGCCATGAGGAAG: 80.1 a.u.
TCTTGGAATTGCGACCACGTGCAAACCTACGTCTGC: 3280 a.u.
TCATGATTGTCTTGATGTGCTTTGCCGGGCTATACA: 76 a.u.
TTGGGTTTCAACGTTTCCGTGGGTATGGGTCCACAA: 45.5 a.u.
CTTTCCCGATCTTGGCGCGTGGGTGTAGCACATTTG: 73.5 a.u.
CCATTGGAAACAGTGCTCGTGCATCTTGATGTTATT: 105 a.u.
CCAAAAAGCCTCCGTCACGTGGTCGCTTGCGCTTAT: 4250 a.u.
CTTTCCCGATCTTGTCACATGACTTTAGCACATTTG: 2470 a.u.
CGTCCTAGTGATTGTCACGTGTTTTCCATGAGGAAG: 6550 a.u.

Other studies, line by line
PhoQ, residues 284 288 289 292 302 303 QWGLFV
fold induction (PhoP, residues 12 14 15 18 19 AWHSL (Escherichia coli, UniProt P23836); Sort-seq, item: YFP reporter; E. coli; PhoQ-PhoP variant library, with: 10 µM Mg2+; relative to: high Mg2+ state, higher = stronger signaling): 2.47
